Measurements pooled from the literature.
Compare with care: the assays were run in different laboratories. Values joined by “and” are separate records of one study, mostly repeats; a detail may differ. ± gives the spread as reported.
Chain of UniProt Q92995 (whole entry, looked up): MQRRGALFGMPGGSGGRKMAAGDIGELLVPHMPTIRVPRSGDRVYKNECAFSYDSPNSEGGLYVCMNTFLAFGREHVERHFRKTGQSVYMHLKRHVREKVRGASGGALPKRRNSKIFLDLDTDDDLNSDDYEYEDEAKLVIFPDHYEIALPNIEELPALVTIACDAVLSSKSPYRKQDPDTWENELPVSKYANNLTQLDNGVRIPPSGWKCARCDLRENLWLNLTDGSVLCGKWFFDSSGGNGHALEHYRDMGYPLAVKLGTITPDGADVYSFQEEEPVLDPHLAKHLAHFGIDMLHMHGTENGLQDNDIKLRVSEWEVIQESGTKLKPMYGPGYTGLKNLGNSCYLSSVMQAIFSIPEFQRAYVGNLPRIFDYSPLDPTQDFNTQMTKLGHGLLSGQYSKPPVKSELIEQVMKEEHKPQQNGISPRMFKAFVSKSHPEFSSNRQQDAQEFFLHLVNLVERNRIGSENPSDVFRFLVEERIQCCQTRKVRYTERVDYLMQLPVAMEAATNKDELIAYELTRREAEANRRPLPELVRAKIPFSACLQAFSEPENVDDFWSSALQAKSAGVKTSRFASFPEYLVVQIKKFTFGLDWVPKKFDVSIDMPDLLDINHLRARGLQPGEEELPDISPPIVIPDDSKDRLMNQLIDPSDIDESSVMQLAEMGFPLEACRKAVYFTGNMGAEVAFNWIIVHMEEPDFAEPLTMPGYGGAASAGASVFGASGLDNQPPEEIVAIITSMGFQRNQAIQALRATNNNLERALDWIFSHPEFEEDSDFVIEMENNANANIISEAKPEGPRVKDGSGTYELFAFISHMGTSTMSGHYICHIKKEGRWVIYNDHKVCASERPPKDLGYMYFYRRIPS
Chain of UniProt Q9UBN7 (whole entry, looked up): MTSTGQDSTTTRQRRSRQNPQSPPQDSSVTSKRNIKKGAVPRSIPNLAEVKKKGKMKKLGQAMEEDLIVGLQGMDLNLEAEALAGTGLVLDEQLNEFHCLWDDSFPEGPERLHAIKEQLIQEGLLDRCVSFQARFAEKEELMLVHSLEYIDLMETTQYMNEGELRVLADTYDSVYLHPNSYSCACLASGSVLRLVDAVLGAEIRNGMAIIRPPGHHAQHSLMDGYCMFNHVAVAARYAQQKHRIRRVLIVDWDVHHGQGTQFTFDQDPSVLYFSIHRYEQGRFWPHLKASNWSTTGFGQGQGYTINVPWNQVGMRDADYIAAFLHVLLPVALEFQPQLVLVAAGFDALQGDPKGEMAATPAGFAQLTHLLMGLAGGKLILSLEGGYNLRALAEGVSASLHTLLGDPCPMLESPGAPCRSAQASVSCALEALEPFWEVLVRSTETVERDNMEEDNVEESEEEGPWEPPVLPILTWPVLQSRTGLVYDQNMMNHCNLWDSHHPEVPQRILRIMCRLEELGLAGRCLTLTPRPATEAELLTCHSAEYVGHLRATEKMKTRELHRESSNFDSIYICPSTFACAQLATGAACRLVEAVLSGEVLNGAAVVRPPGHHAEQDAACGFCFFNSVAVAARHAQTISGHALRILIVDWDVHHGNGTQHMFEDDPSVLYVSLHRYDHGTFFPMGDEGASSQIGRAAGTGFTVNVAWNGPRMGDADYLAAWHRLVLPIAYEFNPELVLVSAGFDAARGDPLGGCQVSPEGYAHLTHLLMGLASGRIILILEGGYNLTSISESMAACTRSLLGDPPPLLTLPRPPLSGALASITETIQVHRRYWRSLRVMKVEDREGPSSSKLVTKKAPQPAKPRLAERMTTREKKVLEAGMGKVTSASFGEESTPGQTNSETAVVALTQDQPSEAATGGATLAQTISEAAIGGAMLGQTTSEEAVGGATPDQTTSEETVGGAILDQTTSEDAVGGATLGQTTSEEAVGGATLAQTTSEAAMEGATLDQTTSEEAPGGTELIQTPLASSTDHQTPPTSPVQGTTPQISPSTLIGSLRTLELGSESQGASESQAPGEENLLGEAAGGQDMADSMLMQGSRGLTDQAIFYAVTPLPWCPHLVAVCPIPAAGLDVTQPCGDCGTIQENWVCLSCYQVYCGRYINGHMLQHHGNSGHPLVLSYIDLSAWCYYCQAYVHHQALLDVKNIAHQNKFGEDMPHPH
Chain of UniProt Q09472 (whole entry, looked up): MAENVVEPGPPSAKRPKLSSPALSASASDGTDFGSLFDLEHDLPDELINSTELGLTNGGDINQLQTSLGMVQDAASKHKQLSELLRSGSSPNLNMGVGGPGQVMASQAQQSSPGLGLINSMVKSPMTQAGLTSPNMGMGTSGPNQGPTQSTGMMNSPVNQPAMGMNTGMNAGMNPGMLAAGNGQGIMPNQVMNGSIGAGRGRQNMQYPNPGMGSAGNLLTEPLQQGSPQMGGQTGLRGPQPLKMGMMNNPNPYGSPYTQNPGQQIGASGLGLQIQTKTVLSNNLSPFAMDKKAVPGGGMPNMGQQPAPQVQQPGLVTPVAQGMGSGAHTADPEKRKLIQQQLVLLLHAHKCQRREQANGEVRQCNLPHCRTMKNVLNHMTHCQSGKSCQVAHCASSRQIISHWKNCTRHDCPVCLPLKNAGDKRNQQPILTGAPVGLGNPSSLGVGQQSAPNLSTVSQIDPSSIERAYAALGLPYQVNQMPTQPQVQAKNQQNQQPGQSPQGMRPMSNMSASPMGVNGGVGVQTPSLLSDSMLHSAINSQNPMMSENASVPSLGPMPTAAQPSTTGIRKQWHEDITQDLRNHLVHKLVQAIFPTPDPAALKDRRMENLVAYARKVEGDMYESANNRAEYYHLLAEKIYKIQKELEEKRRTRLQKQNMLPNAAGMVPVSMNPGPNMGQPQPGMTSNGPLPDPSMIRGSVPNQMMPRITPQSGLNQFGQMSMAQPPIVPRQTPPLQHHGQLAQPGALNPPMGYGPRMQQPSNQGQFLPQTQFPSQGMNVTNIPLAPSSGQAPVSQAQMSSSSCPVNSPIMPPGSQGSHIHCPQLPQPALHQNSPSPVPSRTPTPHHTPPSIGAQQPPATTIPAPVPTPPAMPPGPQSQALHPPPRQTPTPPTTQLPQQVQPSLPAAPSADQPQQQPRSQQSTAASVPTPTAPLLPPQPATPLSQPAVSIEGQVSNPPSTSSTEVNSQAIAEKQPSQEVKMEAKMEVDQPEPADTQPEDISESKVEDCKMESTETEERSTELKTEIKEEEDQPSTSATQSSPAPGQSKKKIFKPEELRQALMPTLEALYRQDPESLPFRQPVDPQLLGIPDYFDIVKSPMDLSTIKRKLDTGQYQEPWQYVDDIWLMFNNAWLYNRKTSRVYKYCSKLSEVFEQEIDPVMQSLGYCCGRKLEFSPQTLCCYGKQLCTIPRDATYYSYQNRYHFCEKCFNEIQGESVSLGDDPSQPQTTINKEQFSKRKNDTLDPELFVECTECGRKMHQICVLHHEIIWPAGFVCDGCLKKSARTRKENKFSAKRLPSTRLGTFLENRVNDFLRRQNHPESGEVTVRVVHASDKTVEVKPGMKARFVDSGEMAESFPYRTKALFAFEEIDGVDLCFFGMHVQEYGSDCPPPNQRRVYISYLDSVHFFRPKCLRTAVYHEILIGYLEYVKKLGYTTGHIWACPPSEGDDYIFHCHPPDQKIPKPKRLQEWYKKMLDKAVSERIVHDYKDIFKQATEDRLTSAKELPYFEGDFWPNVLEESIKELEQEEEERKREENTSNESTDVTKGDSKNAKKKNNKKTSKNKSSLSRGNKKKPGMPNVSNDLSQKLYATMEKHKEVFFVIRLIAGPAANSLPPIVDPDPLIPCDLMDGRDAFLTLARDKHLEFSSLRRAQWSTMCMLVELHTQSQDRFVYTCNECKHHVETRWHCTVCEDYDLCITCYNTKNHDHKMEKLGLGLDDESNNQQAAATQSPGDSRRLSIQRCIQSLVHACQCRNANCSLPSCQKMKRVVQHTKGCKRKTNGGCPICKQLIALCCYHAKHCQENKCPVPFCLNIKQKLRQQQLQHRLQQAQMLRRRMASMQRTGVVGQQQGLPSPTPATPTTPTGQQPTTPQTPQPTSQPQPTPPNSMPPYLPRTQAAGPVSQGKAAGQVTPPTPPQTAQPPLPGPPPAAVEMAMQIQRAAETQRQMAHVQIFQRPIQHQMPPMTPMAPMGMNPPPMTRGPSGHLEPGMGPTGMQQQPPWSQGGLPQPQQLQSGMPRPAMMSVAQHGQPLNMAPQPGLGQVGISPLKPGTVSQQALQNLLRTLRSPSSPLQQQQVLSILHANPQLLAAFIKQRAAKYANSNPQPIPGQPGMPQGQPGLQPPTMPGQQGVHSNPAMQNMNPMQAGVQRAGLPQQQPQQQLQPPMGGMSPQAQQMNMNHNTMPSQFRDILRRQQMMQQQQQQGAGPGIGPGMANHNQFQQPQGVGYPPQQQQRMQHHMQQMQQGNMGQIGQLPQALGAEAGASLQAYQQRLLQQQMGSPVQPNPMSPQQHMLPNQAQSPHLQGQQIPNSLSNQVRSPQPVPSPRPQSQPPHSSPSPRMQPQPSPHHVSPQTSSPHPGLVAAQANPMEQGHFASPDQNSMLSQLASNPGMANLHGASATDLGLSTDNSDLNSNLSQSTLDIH
Chain of UniProt P25090 (whole entry, looked up): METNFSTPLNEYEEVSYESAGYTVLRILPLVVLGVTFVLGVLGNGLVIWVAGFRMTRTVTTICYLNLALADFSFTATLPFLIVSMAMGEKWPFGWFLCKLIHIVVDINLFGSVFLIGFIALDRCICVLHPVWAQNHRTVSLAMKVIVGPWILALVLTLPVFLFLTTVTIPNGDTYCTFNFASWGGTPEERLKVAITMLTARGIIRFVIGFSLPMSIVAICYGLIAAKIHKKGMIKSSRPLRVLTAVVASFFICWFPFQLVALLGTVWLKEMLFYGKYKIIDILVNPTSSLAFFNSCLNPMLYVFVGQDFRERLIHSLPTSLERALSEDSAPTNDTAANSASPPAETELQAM

| Compound | target or system | assay | test system | conditions | scale | endpoint | value |
| --- | --- | --- | --- | --- | --- | --- | --- |
| COc1cc(C(=O)NS(=O)(=O)c2ccccc2C)ccc1Cc1cn(C)c2ccc(NC(=O)OC3CCCC3)cc12 | Volume-regulated anion channel subunit LRRC8C, part LRRC8A IL1 chimera (LRRC8C, Homo sapiens, UniProt Q8TDW0, M48D) | ion current, inhibitor, whole-cell patch clamp | HCT LRRC8-/- cells | 10 µM, constitutively open channel, +100 mV | – | inhibition | 38.1% and 35.8% and 30.2% and 37.2% and 42.1% and 22.8% |
| Cc1cc2c(cc1N1C(=O)c3cccc4c(CCCO)ccc(c34)C1=O)n(C)c(=O)n2C (racemic) | Nucleosome-remodeling factor subunit BPTF (BPTF, Homo sapiens, UniProt Q12830) | binding, BROMOscan binding | – | 100 nM | – | inhibition | 72% |
| CSc1ccccc1C(=O)NCc1cc(O)c(O)c(Br)c1 | Replicase polyprotein 1ab, main protease (rep, Porcine epidemic diarrhea virus, UniProt P0C6Y4) | enzyme activity, FRET | – | concentration not given | – | inhibition | inactive |
| O=C(O)CCc1cnccn1 | Protein deacetylase HDAC6, ZnF-UBD domain (HDAC6, Homo sapiens, UniProt Q9UBN7) | – | – | – | – | Kd | > 1000 µM |
| CC[C@@H]1[C@H](F)C(=O)N[C@@H]1COc1nccc2cc(C(N)=O)c(OC)cc12 | Serine-protein kinase ATM (ATM, Homo sapiens, UniProt Q13315) | ATP-site probe binding, ActivX profiling | THP-1 cell lysate | 0.01 mM | – | inhibition | 12.7% |
| CN1CCN(c2cc(-c3ccncc3)c(-c3ccc4ccccc4c3)nn2)CC1 | N-formyl peptide receptor 2 (FPR2, Homo sapiens, UniProt P25090) | antagonist, FLIPR | – | 10 µM | – | inhibition | 4.3% |
| O=C(NO)c1ccc(CN2CCCCc3ccccc32)c(F)c1 | Alpha-2B adrenergic receptor (ADRA2B, Homo sapiens, UniProt P18089) | radioligand binding, radioligand displacement | – | 10 µM, mean of replicates | – | inhibition | 29.3% |
| COc1cc(CNC(=O)c2cccc(C#N)c2)cc(Br)c1OC | Replicase polyprotein 1ab, papain-like protease (rep, Porcine epidemic diarrhea virus, UniProt P0C6Y4) | enzyme activity, FRET | – | concentration not given | – | inhibition | inactive |
| OO | Histone acetyltransferase p300, BHC core (EP300, Homo sapiens, UniProt Q09472) | enzyme activity, inhibitor | – | 250 µM, p300, no DTT, added: [3H]acetyl-CoA | – | inhibition | 35 ± 10% |
| O=C(O)CNc1ncnc2ccccc12 | Ubiquitin carboxyl-terminal hydrolase 13, ZnF-UBD domain (USP13, Homo sapiens, UniProt Q92995) | – | – | – | – | Kd | > 1000 µM |
| Cn1cc(-c2ccc(-c3cncc(Cl)c3N3CCC4(CCNC4=O)CC3)cc2)cn1 | COLO 205 | gene expression, microarray, refers to: GTF2IRD2 mRNA | – | concentration not given, 2 h | reference: untreated cells | log2 fold change | 9.24 |

Repeated from above:
| Compound | target or system | assay | test system | conditions | scale | endpoint | value |
| --- | --- | --- | --- | --- | --- | --- | --- |
| Cn1cc(-c2ccc(-c3cncc(Cl)c3N3CCC4(CCNC4=O)CC3)cc2)cn1 | COLO 205 | gene expression, microarray, refers to: GTF2IRD2 mRNA | – | concentration not given, 2 h | reference: untreated cells | log2 fold change | 9.24 |
